{"data": "Experimental data gathered from unrelated publications", "matrix": "plasma", "note": "Compare with care: the assays were run in different laboratories."}
{"SMILES": "CC(C)(CO)c1cc2cc(NC(=O)C3(c4ccc5c(c4)OC(F)(F)O5)CC3)c(F)cc2n1C[C@@H](O)CO", "host": "human", "dose": "standard ETI dose", "AUCtau": "51000 ng·h/mL"}
{"SMILES": "Cc1cc(-c2nccc3c2ccn3CC(=O)Nc2ccc(-c3cnccn3)cn2)ccn1", "host": "human", "route": "oral", "dose": "15 mg once daily", "time": "day 1", "notes": "geometric mean", "AUCtau": "1.13 µM·h"}
{"SMILES": "C=CC(=O)Nc1cc(Nc2nccc(Nc3cc(Cl)c(F)cc3C(C)(C)O)n2)c(OC)cc1N1CC[C@@H](N(C)C)C1", "host": "human patients", "route": "oral", "dose": "200 mg daily", "time": "cycle 2 day 1", "notes": "geometric mean", "AUCtau": "6820 ng·h/mL"}
{"SMILES": "CC(C)(C)c1cc(C(C)(C)C)c(NC(=O)c2c[nH]c3ccccc3c2=O)cc1O", "host": "human", "dose": "standard ETI dose", "AUCtau": "9900 ng·h/mL"}
{"SMILES": "CCc1nc(C(N)=O)c(Nc2ccc(N3CCC(N4CCN(C)CC4)CC3)c(OC)c2)nc1NC1CCOCC1", "host": "Japanese patients", "route": "oral", "dose": "80 mg", "time": "cycle 1 day 28", "notes": "multiple doses, median", "AUCtau": "4510 ng·h/mL"}
{"SMILES": "Cc1noc(C)c1-c1cc(C(O)(c2ccccn2)c2ccccn2)c2nc(C3CC3)[nH]c2c1", "host": "human male, fasted", "route": "oral", "dose": "4 mg once daily", "time": "cycle 1 day 8", "AUCtau": "4660 ng·h/mL"}
{"SMILES": "O=C(c1cccnc1-c1ccncc1)N1CCC(O)(Cc2ccccc2)CC1", "host": "healthy Japanese adults", "route": "oral", "dose": "100 mg twice daily", "time": "day 1", "AUCtau": "232 ng·h/mL"}
{"SMILES": "C[C@@H](Oc1cc(-c2cnn(C3CCNCC3)c2)cnc1N)c1c(Cl)ccc(F)c1Cl", "host": "human patients", "route": "oral", "dose": "dose not given", "time": "cycle 2 day 1", "notes": "median", "with": "avelumab", "AUCtau": "3320 ng·h/mL"}
{"note": "Excerpt of the above:"}
{"SMILES": "Cc1noc(C)c1-c1cc(C(O)(c2ccccn2)c2ccccn2)c2nc(C3CC3)[nH]c2c1", "host": "human male, fasted", "route": "oral", "dose": "4 mg once daily", "time": "cycle 1 day 8", "AUCtau": "4660 ng·h/mL"}
